Measured values pooled from the literature.
Protocols differ between the studies behind these lines. Numbers after ± are the reported error.

FC(F)(F)c1ccc(CNc2ccc(Cc3c[nH]c4ncc(Cl)cc34)cn2)cn1 — result for “treatment-related adverse events”: 0% (refers to: dry skin; human, advanced solid tumours, non-TGCT cohort; oral, 1000 mg/day, any grade).
CC(C)(C(=O)N1CCOc2c(C#N)cncc2C1)C(F)F: “subjects with thrombophlebitis TEAE” 16.7% (human, both sexes; oral, 30 mg single dose).
Under “subjects with Fatigue”, C[C@H]1CN(C(=O)CC#N)[C@]12CCN(c1ncnc3[nH]ccc13)C2 is recorded as 0% (healthy human; oral, 3 mg single).
CCCCOC(=O)N1CCN(C(=O)[C@H](CP(=O)(O)O)NC(=O)c2cc(N3CC[C@H](OC)C3)nc(-c3ccccc3)n2)CC1 — result for “change from baseline”: 0 ± 0.35 mmol/L (refers to: Potassium; human, blood; 16 mg, 24 h).
The dose-normalised Cmax of CCS(=O)(=O)Nc1ccc(Oc2ccc(F)cc2F)c(-c2cn(C)c(=O)c3[nH]ccc23)c1 is reported as 12.3 ng/mL/mg (human, plasma; oral, 1.5 mg, cycle 1 day 8, geometric mean).
Under “accumulation ratio of AUCtau”, Cc1cc(C)c(CNC(=O)c2cc(Cl)c3c(c2C)O[C@@](C)([C@H]2CC[C@H](N(C)C)CC2)O3)c(=O)[nH]1 is recorded as 1.19 (refers to: total drug; human; oral, 200 mg, cycle 1 day 15).
CNC(=O)c1ccc(-c2cnc3ncc(Cc4ccc5ncccc5c4)n3n2)cc1F — result for “ALT increased incidence”: 13% (cancer patients; oral, dose not given, all grades dose escalation).
C[C@@H](Oc1ccc(S(C)(=O)=O)cc1C(=O)N1C[C@@H]2C[C@]2(c2cc(C(F)(F)F)on2)C1)C(F)(F)F gave an AUC(0-72 h) of 11 µM·h (elderly humans, plasma; oral, 50 mg single dose, geometric mean).
For Nc1ccn([C@@H]2O[C@H](CO)[C@@H](O)C2(F)F)c(=O)n1, dose-normalised AUC(0-6h) read “decreased” (human, plasma; dose not given, cycle 1 day 1).
Cn1cnc2c1c(=O)[nH]c(=O)n2C has a CSF concentration of 348 nM (human, both sexes, cerebrospinal fluid; dose not given, mean).
With CN1CCN(C(=O)CN(C)S(=O)(=O)c2ccc3ccccc3c2)CC1 the logP was 1.95 (octanol/buffer; pH 11, known kinase inactives set).
The solubility of O=c1c2ccccc2oc2ccccc12 is reported as 0.0608 mole fraction (tricaprin-tricaprylin mixture; 45 °C, tricaprin fraction 0.36).
For CC(C)n1c(Nc2cccnc2)nc2cnc(Nc3ccc(N4CCN(C)CC4)cc3)nc21, “decrease in AUC” read about 30% (human, male, plasma; oral, dose not given, with: rifampin; reference: without rifampin).
For COC(=O)c1ccccc1NC(=O)CSc1nnc(-c2ccc(OC)cc2)n1C, the logP was 2.73 (octanol/buffer; pH 11, known kinase inactives set).
O=[N+]([O-])c1cc2c3ccccc3ccc2c2ccccc12: “mammary tumour incidence” 92% (female Sprague-Dawley rats, mammary gland; intramammary injection, 12.3 µmol/rat total, 32 weeks, at necropsy).
CC[C@@H]1CN(C(=O)NCC(F)(F)F)C[C@@H]1c1cnc2cnc3[nH]ccc3n12 — result for “zero-order input duration”: 3.29 h (population PK modelling; human; oral, extended-release formulation, outliers excluded).
With Cc1cc(NC(=O)c2cccc(NC(=O)/C=C/CN(C)C)c2)ccc1Nc1nccc(-c2cccnc2)n1 the compound remaining was 79.4% (Wistar rat, male, plasma; 1 µM, 120 min).
For CCN(CC)CCNC(=O)c1c(C)[nH]c(/C=C2\C(=O)Nc3ccc(F)cc32)c1C, the serum concentration was 38.2 ng/mL (human, serum; 37.5 mg maintenance dose, 24 h post-dose).
CNC(=O)c1cc(Oc2ccc(NC(=O)Nc3ccc(Cl)c(C(F)(F)F)c3)cc2)ccn1 has a CRE of 0.35 ± 0.19 mg/dL (NOD-SCID mouse, serum; ip, 30 mg/kg).
Under “participants with nausea”, C[C@@H](N)C1CCN(S(=O)(=O)c2cccc3cnccc23)CC1 is recorded as 16.7% (healthy volunteers; 250 mg, fasted).
The Tmax of CN(CCC(=O)O)C(=O)c1ccc2c(c1)CC[C@@H]1[C@@H]2CC[C@]2(C)C(c3cncc(F)c3)=CC[C@@H]12 is reported as 2.97 h (postmenopausal women, plasma; 30 mg once daily multiple dose, day 14, median).

Excerpt of the above:
With CN1CCN(C(=O)CN(C)S(=O)(=O)c2ccc3ccccc3c2)CC1 the logP was 1.95 (octanol/buffer; pH 11, known kinase inactives set).
The solubility of O=c1c2ccccc2oc2ccccc12 is reported as 0.0608 mole fraction (tricaprin-tricaprylin mixture; 45 °C, tricaprin fraction 0.36).
